Experimental data from different studies.
Every numbered part comes from another study and shows a few of its results, in no order. Positions count from the first letter of the parent shown.
Chain of UniProt P51956 (whole entry, looked up): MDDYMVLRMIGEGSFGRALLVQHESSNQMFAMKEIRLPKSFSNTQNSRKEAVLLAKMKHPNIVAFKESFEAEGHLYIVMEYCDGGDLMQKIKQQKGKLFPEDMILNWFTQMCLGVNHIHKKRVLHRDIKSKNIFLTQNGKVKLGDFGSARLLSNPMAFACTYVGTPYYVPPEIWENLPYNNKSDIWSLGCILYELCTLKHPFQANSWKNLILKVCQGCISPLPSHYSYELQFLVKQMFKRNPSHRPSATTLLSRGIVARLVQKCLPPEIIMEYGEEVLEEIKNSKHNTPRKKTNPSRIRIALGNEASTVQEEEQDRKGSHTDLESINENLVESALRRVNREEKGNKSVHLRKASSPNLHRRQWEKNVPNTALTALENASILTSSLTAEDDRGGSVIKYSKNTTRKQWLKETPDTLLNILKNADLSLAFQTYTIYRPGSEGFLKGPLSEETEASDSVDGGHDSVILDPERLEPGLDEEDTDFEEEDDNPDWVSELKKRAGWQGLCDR
Chain of UniProt Q6ZN16 (whole entry, looked up): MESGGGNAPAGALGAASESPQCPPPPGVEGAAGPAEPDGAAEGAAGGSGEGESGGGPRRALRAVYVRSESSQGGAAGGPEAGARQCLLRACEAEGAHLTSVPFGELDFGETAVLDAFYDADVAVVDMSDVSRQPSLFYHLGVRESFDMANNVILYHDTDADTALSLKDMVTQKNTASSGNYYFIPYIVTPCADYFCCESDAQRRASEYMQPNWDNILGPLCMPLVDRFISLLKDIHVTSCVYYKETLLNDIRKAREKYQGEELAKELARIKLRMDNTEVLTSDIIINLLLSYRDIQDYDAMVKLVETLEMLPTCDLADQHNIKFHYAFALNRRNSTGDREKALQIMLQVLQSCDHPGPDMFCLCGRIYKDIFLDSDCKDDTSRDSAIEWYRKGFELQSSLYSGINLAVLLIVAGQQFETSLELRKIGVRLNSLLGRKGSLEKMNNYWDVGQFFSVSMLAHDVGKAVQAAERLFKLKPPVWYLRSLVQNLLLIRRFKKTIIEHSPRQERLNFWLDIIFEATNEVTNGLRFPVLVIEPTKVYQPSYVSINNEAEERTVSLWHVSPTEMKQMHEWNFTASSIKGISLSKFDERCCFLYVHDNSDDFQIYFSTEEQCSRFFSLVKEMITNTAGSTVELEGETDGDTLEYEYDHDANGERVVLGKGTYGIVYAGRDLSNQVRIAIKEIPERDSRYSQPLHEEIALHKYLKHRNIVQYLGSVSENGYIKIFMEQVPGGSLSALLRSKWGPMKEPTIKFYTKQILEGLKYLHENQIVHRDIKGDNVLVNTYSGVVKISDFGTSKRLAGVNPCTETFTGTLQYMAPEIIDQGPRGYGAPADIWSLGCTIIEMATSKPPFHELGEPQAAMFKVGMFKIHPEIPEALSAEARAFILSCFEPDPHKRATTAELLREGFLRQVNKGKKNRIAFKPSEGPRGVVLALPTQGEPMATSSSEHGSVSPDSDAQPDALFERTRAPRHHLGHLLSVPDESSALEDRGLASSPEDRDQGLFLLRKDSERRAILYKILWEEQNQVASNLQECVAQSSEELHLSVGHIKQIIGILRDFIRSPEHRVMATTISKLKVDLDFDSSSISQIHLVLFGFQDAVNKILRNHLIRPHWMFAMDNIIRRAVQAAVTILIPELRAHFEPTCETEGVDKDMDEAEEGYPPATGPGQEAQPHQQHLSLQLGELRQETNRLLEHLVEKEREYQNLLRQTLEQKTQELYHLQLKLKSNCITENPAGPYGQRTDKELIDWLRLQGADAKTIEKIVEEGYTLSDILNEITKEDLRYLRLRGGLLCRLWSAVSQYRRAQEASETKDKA
Chain of UniProt Q09013 (whole entry, looked up): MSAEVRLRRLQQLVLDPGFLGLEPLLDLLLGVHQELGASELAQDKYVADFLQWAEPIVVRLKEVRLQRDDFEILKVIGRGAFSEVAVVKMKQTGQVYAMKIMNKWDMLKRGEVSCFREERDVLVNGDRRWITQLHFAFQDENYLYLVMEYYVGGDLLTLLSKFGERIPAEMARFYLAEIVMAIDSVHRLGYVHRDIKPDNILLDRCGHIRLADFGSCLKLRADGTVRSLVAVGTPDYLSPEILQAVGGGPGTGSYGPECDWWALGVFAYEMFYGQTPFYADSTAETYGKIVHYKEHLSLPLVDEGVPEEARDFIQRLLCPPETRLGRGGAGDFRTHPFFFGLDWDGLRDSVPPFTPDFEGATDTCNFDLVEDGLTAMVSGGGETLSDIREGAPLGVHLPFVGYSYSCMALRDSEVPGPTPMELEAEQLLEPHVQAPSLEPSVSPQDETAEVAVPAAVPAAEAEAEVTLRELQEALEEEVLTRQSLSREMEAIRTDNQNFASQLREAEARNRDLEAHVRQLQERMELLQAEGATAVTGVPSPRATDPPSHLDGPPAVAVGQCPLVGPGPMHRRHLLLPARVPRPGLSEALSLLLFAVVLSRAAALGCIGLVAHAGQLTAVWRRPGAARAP

Series 1 — target: MAFK, bZIP domain (human); method: DHFR protein complementation; sample: yeast; relative to: wild-type JUN-FOS pair; direction: higher = stronger binding
Setting: single substitutions, most at no-binding floor
Parent: JUN, bZIP domain (human); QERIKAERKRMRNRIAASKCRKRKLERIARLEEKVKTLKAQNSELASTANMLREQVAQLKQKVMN; partner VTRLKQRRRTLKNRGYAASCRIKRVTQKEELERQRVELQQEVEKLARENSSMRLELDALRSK
Substitution	binding fitness [natural log]
A29I	-1.5
V56M	-1.45
S47D	-1.46
L31M	-1.32
L38G	-1.44
R30Y	-1.48
A40Q	-1.49
K34A	-1.45

Series 2 — method: RNA Bind-n-Seq; molecule type: RNA; sample: in vitro; concentration: 365 nM; relative to: no-protein control; direction: higher = stronger binding
Target: RNA binding protein fox-1 homolog 2, RRM domain, GST-SBP tag (RBFOX2, Homo sapiens, UniProt O43251-10, residues 100-194)
Setting: natural RNA segment, single round, ends assumed
Constant ends, left off below: GGGAGUUCUACAGUCCGACGAUC … UGGAAUUCUCGGGUGCCAA
Target sequence (chain): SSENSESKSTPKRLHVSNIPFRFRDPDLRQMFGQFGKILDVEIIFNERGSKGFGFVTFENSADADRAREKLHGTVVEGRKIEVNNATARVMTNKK
Oligonucleotide	RBNS enrichment (R)
AAAUCAUUGUGCUACUCUGUGGAUGAGGGUUCAUUCUUAUGUAUGUUCAGAUGUCAUGUGCUGUCUACAUCAUGAGCUUUGGCUUAGGAGAACCUACAAAGCUGGCAGAG	0.676
CAUGCUCUGUGCACAGGCACAGAGGACAUCUAACAAGAUCAUCGGACCCUAAUGCAAGUUCCAUGUUCACAGAAAAUUCAUGCACUCUGCGCAAACAGGACGAAAUGGUU	0.341
AUCUGCCAUCUUUGAACUCAUCUUUGGUGGCUAGACUGCUACGGCAGCUUCUCUGAUGGGAAAGUUCCUUUUUUGGCUUAACACUCACCCUUUCUUCACACUCACAUUUA	0.336
UACUUAUUCAAAAAAAUCCUAGAGAUUCUUAGCUCUUGGGAUGCAGGCUCAGCCCGCUGGAGCAUGAGCUCUGUGUGUACCGAGAACUGGGGUGAUGUUUUACUUUUCAC	0.342
GGUGGCCCACAAAGCCUUACACAAGGCGAGAUGUCAAUGAAGGGGUUGGCCUGUGUGUUCCAUCUCUGCUCACCUCUGCCUCUACUCUGAGAUGCAGCCUGGCUGAUCCU	0.252
AAGCGUGGACGUGUGUCCCCAUGGCUUGUGGAUCAGCUAAGCUCGGGAUCAUUUCCAUAAGUCUGCUUUUCAGGGAUUCUCUGCUGGUGCUGGUGCAAGGACUUCUGUUC	0.359
AGCUCACAGAGCCGCGUCCCUCGAAGCCGUGAGCUACGCCAUUGAUUCUUUAAAAGCCAAGGUGCCCAUAUGGAAAAAGGGCUUGACUUAAACCUGUGAUAAGAUGUCUG	0.435
CCGUCCCUCCCCAGAUGGGGCGUUGAGUCCAUAUUUAAACUGGCCACCCUCACAGUUCUAACUUAGCAAGUGCUUUUCUUUAGAACCCCUUCUUAACGAGCAAUAUGUCU	0.432

Series 3 — read-out: enzyme activity; action: inhibitor; concentration: 0.5 µM; relative to: control
Target: Serine/threonine-protein kinase WNK2 (WNK2, Homo sapiens, UniProt Q9Y3S1)
Chain of UniProt Q9Y3S1 (whole entry, looked up): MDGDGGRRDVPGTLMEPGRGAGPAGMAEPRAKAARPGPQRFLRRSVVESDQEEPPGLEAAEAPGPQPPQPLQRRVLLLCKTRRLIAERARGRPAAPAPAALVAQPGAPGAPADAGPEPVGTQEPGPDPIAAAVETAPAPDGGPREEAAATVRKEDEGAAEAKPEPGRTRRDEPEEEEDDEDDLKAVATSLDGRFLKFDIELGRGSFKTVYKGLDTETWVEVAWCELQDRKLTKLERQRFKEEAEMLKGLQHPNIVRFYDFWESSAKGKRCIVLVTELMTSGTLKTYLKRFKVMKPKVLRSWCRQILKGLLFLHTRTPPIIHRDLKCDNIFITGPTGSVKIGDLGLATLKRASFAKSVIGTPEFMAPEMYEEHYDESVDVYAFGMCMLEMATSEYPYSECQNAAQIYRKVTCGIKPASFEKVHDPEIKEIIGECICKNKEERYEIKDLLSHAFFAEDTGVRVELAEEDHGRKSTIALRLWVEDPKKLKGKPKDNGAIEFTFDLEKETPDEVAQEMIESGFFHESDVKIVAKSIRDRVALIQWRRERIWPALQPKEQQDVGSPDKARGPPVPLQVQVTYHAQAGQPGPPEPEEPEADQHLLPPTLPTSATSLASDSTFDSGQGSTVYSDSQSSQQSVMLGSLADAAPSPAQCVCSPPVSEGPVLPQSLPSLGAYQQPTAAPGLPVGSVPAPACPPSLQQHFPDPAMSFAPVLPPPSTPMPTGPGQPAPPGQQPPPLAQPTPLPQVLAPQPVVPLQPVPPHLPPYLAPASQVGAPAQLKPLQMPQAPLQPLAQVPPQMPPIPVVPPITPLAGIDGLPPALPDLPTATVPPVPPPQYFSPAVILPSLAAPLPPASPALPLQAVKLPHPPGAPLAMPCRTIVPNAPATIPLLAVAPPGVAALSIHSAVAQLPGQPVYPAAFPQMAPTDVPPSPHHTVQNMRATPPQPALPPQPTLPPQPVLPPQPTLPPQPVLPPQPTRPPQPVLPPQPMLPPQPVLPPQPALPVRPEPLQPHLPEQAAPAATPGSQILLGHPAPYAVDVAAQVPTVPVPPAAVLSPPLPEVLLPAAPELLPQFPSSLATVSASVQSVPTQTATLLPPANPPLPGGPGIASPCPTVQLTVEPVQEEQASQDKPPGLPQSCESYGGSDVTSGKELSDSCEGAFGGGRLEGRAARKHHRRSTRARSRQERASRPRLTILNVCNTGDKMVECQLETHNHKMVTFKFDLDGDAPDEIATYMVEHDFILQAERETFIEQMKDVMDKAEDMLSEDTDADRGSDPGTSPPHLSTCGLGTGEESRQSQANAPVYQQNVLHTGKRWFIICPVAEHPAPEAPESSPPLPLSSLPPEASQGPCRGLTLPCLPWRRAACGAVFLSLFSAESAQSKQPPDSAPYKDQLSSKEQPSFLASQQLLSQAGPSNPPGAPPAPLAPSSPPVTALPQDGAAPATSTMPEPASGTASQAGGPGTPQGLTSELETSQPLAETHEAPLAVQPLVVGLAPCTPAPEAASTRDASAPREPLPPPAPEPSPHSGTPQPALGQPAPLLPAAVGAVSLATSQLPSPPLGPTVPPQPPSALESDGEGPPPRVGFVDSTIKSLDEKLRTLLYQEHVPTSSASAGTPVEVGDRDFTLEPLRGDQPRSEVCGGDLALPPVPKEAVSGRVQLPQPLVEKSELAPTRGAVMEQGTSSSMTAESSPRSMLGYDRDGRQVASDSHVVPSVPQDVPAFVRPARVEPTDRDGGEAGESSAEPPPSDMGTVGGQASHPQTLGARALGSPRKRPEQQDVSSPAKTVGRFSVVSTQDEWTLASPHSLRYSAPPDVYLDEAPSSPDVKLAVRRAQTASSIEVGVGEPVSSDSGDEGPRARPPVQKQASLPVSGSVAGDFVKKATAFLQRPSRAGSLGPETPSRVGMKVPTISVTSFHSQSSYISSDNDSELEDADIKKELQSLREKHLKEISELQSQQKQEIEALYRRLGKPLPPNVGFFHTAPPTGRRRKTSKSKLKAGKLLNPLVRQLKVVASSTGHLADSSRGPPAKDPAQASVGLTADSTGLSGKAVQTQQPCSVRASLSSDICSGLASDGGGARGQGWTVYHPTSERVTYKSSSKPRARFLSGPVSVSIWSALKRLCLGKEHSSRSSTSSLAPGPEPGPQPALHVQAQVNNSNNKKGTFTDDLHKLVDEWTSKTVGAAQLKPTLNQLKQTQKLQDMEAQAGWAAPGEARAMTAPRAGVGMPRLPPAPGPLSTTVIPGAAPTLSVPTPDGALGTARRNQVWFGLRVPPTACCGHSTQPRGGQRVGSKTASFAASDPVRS
SMILES	remaining activity
O=c1cc(-c2cccc3c2Sc2ccccc2S3)oc(N2CCOCC2)c1	116%
O=C(Nc1cccc(Nc2nccc(Nc3cccc(C(F)(F)F)c3)n2)c1)C1CC1	122%
Cc1cc2ncc(-c3ccccc3)nc2cc1C	98.8%
CCN(CC)C(=O)c1ccc(Nc2nc(OCC3CCCCC3)c3[nH]cnc3n2)cc1	88.6%
COc1cc2ncnc(Nc3cccc(Cl)c3)c2cc1OC	98.6%
Ic1cccc(CSc2nnc(-c3ccncc3)o2)c1	99.5%
c1ccc(-c2[nH]ncc2-c2ccnc3ccccc23)nc1	49.2%
Cc1nc2cc3nc(-c4cccs4)cnc3cc2n1C	123%
Cc1cn(-c2cc(NC(=O)c3ccc(C)c(Nc4nccc(-c5cccnc5)n4)c3)cc(C(F)(F)F)c2)cn1	102%
Nc1cccc(-c2cc3c(Oc4cccc(O)c4)ncnc3[nH]2)c1	103%
CCN(CC)CCNC(=O)c1c(C)[nH]c(/C=C2\C(=O)Nc3ccc(F)cc32)c1C	100%
c1ccc(-c2cnc(Nc3ccc(OCCN4CCCC4)cc3)s2)cc1	119%
N#C/C(=C\c1ccc(O)c(O)c1)C(=O)NCc1ccccc1	104%
C[C@@H]1CCN(C(=O)CC#N)C[C@@H]1N(C)c1ncnc2[nH]ccc12	101%
CCN(CC)CCNC(=O)c1c(C)[nH]c(/C=C2\C(=O)Nc3ccc(Cl)cc32)c1C	101%
O=C1C(Cl)=C(N2C(=O)CCC2=O)C(=O)c2ccccc21	108%
N#Cc1c(NC(=O)c2cccc3ccccc23)sc2c1CCCC2	109%
CN(C)C[C@H]1CCn2c(c(C3=C(c4cn(C)c5ccccc45)C(=O)NC3=O)c3ccccc32)C1	103%
O=C(NC(NC(=S)Nc1ccc(F)c([N+](=O)[O-])c1)C(Cl)(Cl)Cl)C(c1ccccc1)c1ccccc1 (stereo not drawn)	117%

Series 4 — concentration: 1 µM
SMILES: COc1cc(-c2cn(C3CCc4c(F)cccc4N(CC(F)(F)F)C3=O)nn2)ccc1-n1cnc(C)c1 (stereo not drawn)
target	assay	remaining binding [%]
Serine/threonine-protein kinase Nek3 (NEK3, Homo sapiens, UniProt P51956)	cell-free assay, competition with immobilised ligand	86
Ribosomal protein S6 kinase alpha-4, N-terminal kinase domain (RPS6KA4, Homo sapiens, UniProt O75676)	cell-free assay, competition with immobilised ligand	100
Serine/threonine-protein kinase Nek5 (NEK5, Homo sapiens, UniProt Q6P3R8)	cell-free assay, competition with immobilised ligand	90
Phosphatidylinositol 4,5-bisphosphate 3-kinase catalytic subunit alpha isoform (PIK3CA, Homo sapiens, UniProt P42336, Q546K)	cell-free assay, competition with immobilised ligand	90
Dual specificity mitogen-activated protein kinase kinase 1 (MAP2K1, Homo sapiens, UniProt Q02750)	cell-free assay, competition with immobilised ligand	100
Proto-oncogene tyrosine-protein kinase Src (SRC, Homo sapiens, UniProt P12931)	cell-free assay, competition with immobilised ligand	93
Ribosomal protein S6 kinase alpha-2, N-terminal kinase domain (RPS6KA2, Homo sapiens, UniProt Q15349)	cell-free assay, competition with immobilised ligand	100
Mitogen-activated protein kinase kinase kinase 15 (MAP3K15, Homo sapiens, UniProt Q6ZN16)	cell-free assay, competition with immobilised ligand	100
AP2-associated protein kinase 1 (AAK1, Homo sapiens, UniProt Q2M2I8)	binding	100
Activin receptor type-1B (ACVR1B, Homo sapiens, UniProt P36896)	cell-free assay, competition with immobilised ligand	100
Receptor-type tyrosine-protein kinase FLT3, autoinhibited (FLT3, Homo sapiens, UniProt P36888)	cell-free assay, competition with immobilised ligand	100
Non-receptor tyrosine-protein kinase TYK2, JH1 (TYK2, Homo sapiens, UniProt P29597)	cell-free assay, competition with immobilised ligand	100
Mitogen-activated protein kinase kinase kinase 19 (MAP3K19, Homo sapiens, UniProt Q56UN5)	cell-free assay, competition with immobilised ligand	100
Myotonin-protein kinase (DMPK, Homo sapiens, UniProt Q09013)	cell-free assay, competition with immobilised ligand	99
Dual specificity protein kinase TTK (TTK, Homo sapiens, UniProt P33981)	cell-free assay, competition with immobilised ligand	100
MAP kinase-interacting serine/threonine-protein kinase 2 (MKNK2, Homo sapiens, UniProt Q9HBH9)	cell-free assay, competition with immobilised ligand	76

Excerpt of the above (series 3):
SMILES	remaining activity
Cc1cn(-c2cc(NC(=O)c3ccc(C)c(Nc4nccc(-c5cccnc5)n4)c3)cc(C(F)(F)F)c2)cn1	102%
Nc1cccc(-c2cc3c(Oc4cccc(O)c4)ncnc3[nH]2)c1	103%
CCN(CC)CCNC(=O)c1c(C)[nH]c(/C=C2\C(=O)Nc3ccc(F)cc32)c1C	100%
c1ccc(-c2cnc(Nc3ccc(OCCN4CCCC4)cc3)s2)cc1	119%
N#C/C(=C\c1ccc(O)c(O)c1)C(=O)NCc1ccccc1	104%
C[C@@H]1CCN(C(=O)CC#N)C[C@@H]1N(C)c1ncnc2[nH]ccc12	101%
